Experimental data gathered from unrelated publications.
Each numbered part is a random draw from the data of one study; scales do not carry over between parts. Positions count from the first letter of the parent shown.

Sample 1
Target: UBE2J2 UBC core domain (UniProt Q8N2K1)
Method: yeast two-hybrid
Medium: yeast
Setting: mostly zero background
Reference: not given
Reading: higher = stronger interaction
B1: HLTF RING domain (UniProt Q14527); chain LILSSGSDEECAICLDSLTVPVITHCAHVFCKPCICQVIQNEQPHAKCPLCRNDIHEDNLLE
B2: MARCHF1 RING domain (UniProt Q8TCQ1); chain TAPRSQSRLSVCPSTQDICRICHCEGDEESPLITPCRCTGTLRFVHQSCLHQWIKSSDTRCCELCKYDFIMETKLKPLRKWE
B3: RNF6 RING domain (UniProt Q9Y252); chain NSIDSELGKICSVCISDYVTGNKLRQLPCMHEFHIHCIDRWLSENCTCPICRQPVLGSNIAN
B4: BFAR RING domain (UniProt Q9NZS9); chain GPQISVSEFSCHCCYDILVNPTTLNCGHSFCRHCLALWWASSKKTECPECREKWEGFPKVS
B5: NFX1 RING domain (UniProt Q12986); chain IEQLTTEKYECMVCCELVRVTAPVWSCQSCYHVFHLNCIKKWARSPASQADGQSGWRCPACQNVSAHVPNTY
B6: RNF103 RING domain (UniProt O00237); chain WPADMLHCTECVVCLENFENGCLLMGLPCGHVFHQNCIVMWLAGGRHCCPVCRWPSYKKKQPY
B7: RNF182 RING domain (UniProt Q8N6D2); chain AESQASDELECKICYNRYNLKQRKPKVLECCHRVCAKCLYKIIDFGDSPQGVIVCPFCRFETCLPDDEV
B8: RUFY1 RING domain (UniProt Q96T51); chain QALKGHAWLKDDEATHCRQCEKEFSISRRKHHCRNCGHIFCNTCSSNELALPSYPKPVRVCDSCHTLLLQRCSSTAS
B9: TRIM41 RING domain (UniProt Q8WV44); chain PVQTLQEEAVCAICLDYFTDPVSIGCGHNFCRVCVTQLWGGEDEEDRDELDREEEEEDGEEE
Target sequence (chain): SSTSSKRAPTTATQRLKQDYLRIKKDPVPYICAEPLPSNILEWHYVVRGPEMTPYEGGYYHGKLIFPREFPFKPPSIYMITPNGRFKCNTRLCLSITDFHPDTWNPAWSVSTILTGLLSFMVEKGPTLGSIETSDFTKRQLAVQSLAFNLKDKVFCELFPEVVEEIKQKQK
| Sequence | lacZ reporter activity |
| --- | --- |
| B1 (HLTF RING domain) | 0 |
| B2 (MARCHF1 RING domain) | 0 |
| LVKDFNPYITCYICKGYLIKPTTVTECLHTFCKTCIVQHFEDSNDCPRCGNQVHETNPLE (PCGF5 RING domain (UniProt Q86SE9)) | 0 |
| B3 (RNF6 RING domain) | 0 |
| ASPKIFQKTKCSICNSALELPSVHFLCGHSFHQHCFESYSESDADCPTCLPENRKVMDMI (VPS11 RING domain (UniProt Q9H270)) | 0 |
| B4 (BFAR RING domain) | 0 |
| B5 (NFX1 RING domain) | 0 |
| DDVLTKDAGECVICLEELLQGDTIARLPCLCIYHKSCIDSWFEVNRSCPEHPAD (ZNRF1 RING domain (UniProt Q8ND25)) | 0 |
| B6 (RNF103 RING domain) | 9890 |
| B7 (RNF182 RING domain) | 0 |
| B8 (RUFY1 RING domain) | 0 |
| B9 (TRIM41 RING domain) | 0 |

Sample 2
Target: CCNE1, cyclin fold, Cln2 fusion (human)
Method: yeast growth competition, sequencing
Medium: yeast
Setting: strong parent motif
Reference: not given
Reading: higher = stronger binding
Parent: DTL docking peptide (human); PSSMRKICTYFHR
| Change | normalised enrichment score |
| --- | --- |
| PSSMRKACTYFHR [I7A] | 0.404 |
| PSSARKICTYFHR [M4A] | 0.702 |
| PSSMRAICTYFHR [K6A] | 0.923 |
| PASMRKICTYFHR [S2A] | 0.65 |
| PSSMRKIATYFHR [C8A] | 0.297 |
| PSSMRKICTAFHR [Y10A] | 0.786 |
| PSSMRKICTYFHA [R13A] | 1.19 |

Sample 3
Target: MAFF, bZIP domain (human)
Method: DHFR protein complementation
Medium: yeast
Setting: single substitutions, most at no-binding floor
Reference: wild-type JUN-FOS pair
Reading: higher = stronger binding
Parent: JUN, bZIP domain (human); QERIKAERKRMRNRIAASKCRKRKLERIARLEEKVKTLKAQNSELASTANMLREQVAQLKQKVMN; partner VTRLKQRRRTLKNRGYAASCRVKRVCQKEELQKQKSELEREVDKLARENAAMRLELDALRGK
| Change | binding fitness [natural log] |
| --- | --- |
| A40Y | -1.4 |
| V35Y | -1.32 |
| E44H | -1.37 |
| L31A | -1.43 |
| A29W | -1.47 |
| I28V | -1.33 |
| R30I | -1.42 |
| N42Y | -0.981 |
| R30T | -1.53 |
| Q41V | -1.49 |
| K36H | -1.42 |
| T37W | -1.29 |
| L31C | -1.43 |
| M51A | -1.39 |
| R30A | -1.25 |
| T48I | -1.37 |
| Q41A | -1.4 |
| E32T | -1.49 |

Sample 4
Target: RNA binding protein fox-1 homolog 2, RRM domain, GST-SBP tag (RBFOX2, Homo sapiens, UniProt O43251-10, residues 100-194)
Method: RNA Bind-n-Seq
Molecule type: RNA
Medium: in vitro
Concentration: 365 nM
Setting: natural RNA segment, single round, ends assumed
Reference: no-protein control
Reading: higher = stronger binding
Target sequence (chain): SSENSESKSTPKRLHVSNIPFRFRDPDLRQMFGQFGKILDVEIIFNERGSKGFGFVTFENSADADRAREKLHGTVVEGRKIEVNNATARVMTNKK
| Strand | RBNS enrichment (R) |
| --- | --- |
| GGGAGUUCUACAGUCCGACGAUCGGAUAGGAGUCUAGAUAUUUACCUGAUACUAAUCAGGAAAUAUAUGAUAUCCGUAUUUAAAAUGUAGUUAGUUAUAUUUAAUGACCUCAUUCCUAAGUUCCUUUUUCGUUUGGAAUUCUCGGGUGCCAA | 0.311 |
| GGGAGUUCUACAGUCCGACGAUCAUGGGCAUGGCAUGUGAAGCAAUGUCCUGCAGAUGGAUUACCACCUUUUAUUUCUGCCAGCUAACAUCCUCCCAGCCUCCUGCCUACUACUGUAGACUCCGGUGUGACCCUGGAAUUCUCGGGUGCCAA | 0.573 |
| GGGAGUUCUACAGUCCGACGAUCAGGGGCCUGCCAGAAAAGUCACUAACCUGUCUCAGUGUGGCCUUGUCCAGCCUUGUGUUUUCUGUAACCCCUGUUUGUGGUACGAGAUAAUGAGUCCUAUUUUUCUCUCAUGGAAUUCUCGGGUGCCAA | 0.281 |
| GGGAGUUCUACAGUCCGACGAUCCUGAGACAAAAAGGAAACAUAAGAGCUUUUUCACUCUAAAAAUCUUGGCAAUAAUGUCAACACCAGAAAGCCUCCUCUGGAGAAUCUUACAGAGUGAUUGUAGUUUAAUAUGGAAUUCUCGGGUGCCAA | 0.249 |
| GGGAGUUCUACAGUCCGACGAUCACCUGGGCCGCUCAAAUUCAUUCCAGGGAGGAGGCUCCACUGCAUUCUUUGGCUGUGCCCUGAGGGUGCCUGCUCCUUUGUACGGUAACAGUCAAUUUUGAGGUUUCUUUUGGAAUUCUCGGGUGCCAA | 0.786 |
| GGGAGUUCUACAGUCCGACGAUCUUUAAAUGGCUAUUGAAAUUUAUAAUGGCCCUUCAAUUCUUACUAUAUGCUUAAUAGUGUGCUAAAUAAGUGCUCUUCUGUCUUUUAUUAGAGCUUCUCAGAAACCCUAAUGGAAUUCUCGGGUGCCAA | 0.629 |
| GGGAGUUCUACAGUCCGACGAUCCUCAUCUCCAGCACAGCACAGGCGUGUGCACACAGAGGUGUUCCUUGCAGCCCCCUCCCUCUCAGGUGUCCUGAGAUGCUGUUCCUGGGAGCCCCCUCAGAAAACUGCCUUGGAAUUCUCGGGUGCCAA | 0.405 |
| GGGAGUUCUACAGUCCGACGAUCUGUGAUACAUUCCCUGGCUGAGGACUCGGGGCUGGCCUGGGCAUUUGCCUGGACUGCUGGAAACACUAGGUCUCCUGUGCGUGUGUGGAAAGGUAAUAGUGGCACAAUGUUGGAAUUCUCGGGUGCCAA | 0.562 |
| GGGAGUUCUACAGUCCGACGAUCCAGAAACCCCUGAUAAACUGAUCAGAUCUCAUGAGACUUAUUCACUGUCACGAGAAUAGCACGGGAAAGACUGGCCCCCAUGAUUCAAUUACCUCCCCCUGGGUCUGUCCUGGAAUUCUCGGGUGCCAA | 0.756 |
| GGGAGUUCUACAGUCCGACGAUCGCCUCAGUGUUGGCCAAACUCUGGAGUCACUGACUGGUUUGACUUUCAUACGGUGAAUAUGCAUUUGGUCUGUACUGAUCAUGGAAUAAACACAUCUCUCUUUUUUUAAUUGGAAUUCUCGGGUGCCAA | 0.339 |
| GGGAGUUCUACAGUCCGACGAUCCUGGUGGCUCCUAGUGUCCCCUGGGACCAUGCUGUAGAGACUUUUAAGUUGCAUGCACUGCGGGACUUGCAGUCAGCUGGCUGCCAUUAUUCAUAGCCGCUUGGUAUGCAUGGAAUUCUCGGGUGCCAA | 4.34 |
| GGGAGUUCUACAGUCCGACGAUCUUCCUUGGGGGCAGGGACUUGACCAUGUGUCUAUUUCUGUAAUUCCCAAAUGCCUAACAGUGCAGUCAUUUCUCAAUAAAUACAUUUUAAAUAAAUGAACAAAUUCUGCCUGGAAUUCUCGGGUGCCAA | 0.619 |

Sample 5
Target: Hepatocyte nuclear factor 3-beta, forkhead domain (FOXA2, Homo sapiens, UniProt Q9Y261, residues 142-269)
Method: protein-binding microarray
Molecule type: double-stranded DNA, one strand shown
Medium: in vitro
Concentration: not given
Setting: k-mer, scored over probes, only values ≥0.25
Reading: higher = stronger binding
Residues (chain): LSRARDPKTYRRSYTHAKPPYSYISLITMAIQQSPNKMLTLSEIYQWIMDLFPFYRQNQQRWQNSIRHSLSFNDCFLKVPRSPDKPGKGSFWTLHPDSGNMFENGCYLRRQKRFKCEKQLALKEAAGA
| Strand | E-score |
| --- | --- |
| CTATTGTA | 0.307 |
| ACTATAAT | 0.292 |
| ATTTGTTG | 0.254 |
| GTATACAC | 0.277 |
| ATATGGGC | 0.28 |
| TATCTCAA | 0.344 |
| AATGATAC | 0.283 |
| TACTATAA | 0.35 |
| CTAATAAC | 0.279 |
| ACGTAATG | 0.288 |
| AGCATGTA | 0.271 |
| ACATATCG | 0.318 |
| ATCGGAAT | 0.251 |
| AGTAATAA | 0.282 |
| CAAACAAC | 0.324 |
| CCTGATAC | 0.291 |
| ATAAGAAC | 0.279 |
| TAACAATA | 0.377 |
| ATCAACAA | 0.353 |
| TAACATCA | 0.281 |
| AATATCAT | 0.279 |
| ACGTATTA | 0.335 |
| AGCAAACA | 0.339 |
| GTCAAATA | 0.371 |
| ATACAGTG | 0.263 |

Repeated from above (sample 5):
| Strand | E-score |
| --- | --- |
| ATCGGAAT | 0.251 |
| AGCATGTA | 0.271 |
| ATAAGAAC | 0.279 |
| CCTGATAC | 0.291 |
| ATACAGTG | 0.263 |
| ATATGGGC | 0.28 |
| AATATCAT | 0.279 |
